# Assay results of several laboratories.
# A part holds a random share of what one study measured.

# Block 1 — method: RNA Bind-n-Seq; form: RNA; medium: in vitro; concentration: 365 nM; reference: no-protein control; reading: higher = stronger binding
# Target: RNA binding protein fox-1 homolog 2, RRM domain, GST-SBP tag (RBFOX2, Homo sapiens, UniProt O43251-10, residues 100-194)
# Setting: natural RNA segment, single round, ends assumed
# Constant ends, left off below: GGGAGUUCUACAGUCCGACGAUC … UGGAAUUCUCGGGUGCCAA
# Target sequence (chain): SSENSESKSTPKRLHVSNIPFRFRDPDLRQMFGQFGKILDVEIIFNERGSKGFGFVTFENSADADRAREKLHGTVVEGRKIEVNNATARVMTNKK
Strand,RBNS enrichment (R)
GGAGCACACACUUCCAUUAUGCUUGGCACAUAGGUCUCCUUGUGGUGGGUGGGAUCUGGGGGAGGUAGAUUUUCCUCAUCUCUCUUCCUGCCUCCCUCCCAUCUCCUGAU,0.23
AGGAAACCAAUUAGAUUCAAAUGUAGGAUAUUACAGGUUGGUUGAAAUCCCAUGUACAAAUAAAAUUCUAUGUCUGAAAGAUUCUUCUGUUUGAACUUAAGAAGAAUAAA,1.76
GUCACAACAGGGGGUAGCCCUCAAAAGCACUCCUUUUUCUAUACCUCUUCUCAAGGCCAUGUAAGUUGCCCAUCUCUACCUGGCUGUGGACAAAAGGUUAUCUGCUCUUG,0.371
CUCCAUCCUAGGGCAACCUGGGGCAGACAGGCCUGGUGGGGGGUGGGGAAACCUCCUUCCACCUGAGCUUGCUUGAAGGGACCCAGAGUCUUUGGGCCCAGAUCUUUAAA,0.226
UUAGAAUUUUUCUUUAAAUUAUGGUUUUCUUAUUCGUGAAAAUUCGGAGAGUGCUGCUAAAAUUGGAUUGGUGUGAUCUUUUUGGUAGUUGUAAUUUAACAGAAAAACAC,0.754
UUUUCUGUUAACAGGAAAAUUUAUUUAUUUGACAGGAUUUUAAGUAAUGUAGGAAUACAAAUGGUAAAUUAGCAGCACAUAUAAUUUUUUUUAAAUUUAUGAUCCAUUUU,1.7
AUCUUCCUUCUGUGUUUUACUCGGCUCAUUGCUUCUCUGGAGACAAAUGCAAUGCUUCCUACCCCCGUCCUGUCACAGGCAGUCUGAGGACUCACCUUCACACGUGAGAC,0.337

# Block 2 — method: protein-binding microarray; form: double-stranded DNA, one strand shown; medium: in vitro; concentration: 2200 nM top; setting: 60-bp whole probe; together with: salmon DNA 0.4 mg/ml; reference: random background probes; reading: higher = stronger binding; constant ends, left off below: GCCTAGCAC … GTCTTGATTCGCTTGACGCTGCTG
# Target: Interferon regulatory factor 7, full length, phosphomimetic (IRF7, Homo sapiens, UniProt Q92985, residues 1-503, S471D/S472D/S475D/S476D/S477D/S483D/S484D/S487D)
# Target sequence (chain): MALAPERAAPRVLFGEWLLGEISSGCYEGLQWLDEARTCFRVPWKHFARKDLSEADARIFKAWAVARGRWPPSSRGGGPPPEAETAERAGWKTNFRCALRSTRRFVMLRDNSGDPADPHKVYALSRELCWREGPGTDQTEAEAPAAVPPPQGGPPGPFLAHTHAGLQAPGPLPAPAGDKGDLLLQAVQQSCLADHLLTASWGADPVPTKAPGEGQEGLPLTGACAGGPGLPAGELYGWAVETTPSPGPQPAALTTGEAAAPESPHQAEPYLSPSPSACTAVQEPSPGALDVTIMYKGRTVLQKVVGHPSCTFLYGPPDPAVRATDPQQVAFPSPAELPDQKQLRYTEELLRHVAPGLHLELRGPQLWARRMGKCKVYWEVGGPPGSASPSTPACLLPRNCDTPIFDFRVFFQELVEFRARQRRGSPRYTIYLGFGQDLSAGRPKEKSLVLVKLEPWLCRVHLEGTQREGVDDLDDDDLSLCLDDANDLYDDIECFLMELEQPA
Strand,fitted relative affinity [z-score]
TTAGGACTGCTGCTGCTTTAGTGCTAG,-0.46
TTAGGGATCGACTTTCGGTTAGTGCTA,5.44
TTAGGTCTCGGTCTCAGTTAGTGCTAG,0.461
TCAACTTTGAATTAGAAACTGTGCTAG,-0.275
TTGTTTTTCATTATTGTCTTGTGCTAG,2.66
GACGGTCCCGGACTGGGGACGTGCTAG,-1.04

# Block 3 — method: universal PBM; form: double-stranded DNA, one strand shown; medium: in vitro; concentration: not given; reading: higher = stronger binding
# Target: Sal-like protein 4, full length isoform B (SALL4, Homo sapiens, UniProt Q9UJQ4-2, residues 1-616)
# Setting: 8-mer, flanks averaged, mean of replicates
# Construct (chain): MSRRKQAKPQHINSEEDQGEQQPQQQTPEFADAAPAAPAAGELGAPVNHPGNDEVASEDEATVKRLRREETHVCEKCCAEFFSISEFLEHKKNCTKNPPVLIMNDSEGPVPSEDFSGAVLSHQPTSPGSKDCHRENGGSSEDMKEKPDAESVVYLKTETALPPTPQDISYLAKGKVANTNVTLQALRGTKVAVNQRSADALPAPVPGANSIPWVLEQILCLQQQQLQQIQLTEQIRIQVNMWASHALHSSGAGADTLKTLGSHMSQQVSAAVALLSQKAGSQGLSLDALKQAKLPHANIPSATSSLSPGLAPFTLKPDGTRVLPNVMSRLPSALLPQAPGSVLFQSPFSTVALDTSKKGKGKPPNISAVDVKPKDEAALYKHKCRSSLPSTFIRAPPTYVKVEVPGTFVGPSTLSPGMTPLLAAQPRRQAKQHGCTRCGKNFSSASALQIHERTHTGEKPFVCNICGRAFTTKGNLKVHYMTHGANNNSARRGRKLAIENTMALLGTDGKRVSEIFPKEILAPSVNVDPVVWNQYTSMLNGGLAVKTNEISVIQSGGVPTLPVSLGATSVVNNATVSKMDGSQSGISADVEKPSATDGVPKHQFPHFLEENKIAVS
Strand,E-score
CTTTATTC,0.0955
ACCATAAA,0.299
AATGGAGA,0.0408
GAAGCTGC,-0.289
CAGCGATA,0.0195
AGAACGGG,-0.0752
GATTAGGC,0.0127

# Further values, each from its own experiment
Substance,target,test,test system,setting,how to read,endpoint,value
"PhoQ, residues 284 288 289 292 302 303 SLANIV","PhoP, residues 12 14 15 18 19 NMSFL (Escherichia coli, UniProt P23836)","Sort-seq, item: YFP reporter",E. coli,"PhoQ-PhoP variant library, together with: 10 µM Mg2+","reference: high Mg2+ state, higher = stronger signaling",fold induction,14.8
